Assay results gathered from unrelated publications.
± gives the spread as reported. Values after ≈ are worked out from the molar mass of the structure shown.

CCN(CC)[C@@H]1CCc2c(F)ccc(O)c2C1 has an IC50 of 1580 nM (Plasmodium falciparum; 3D7).
Cc1ccccc1C(=O)NN=Cc1ccc(O)c(Br)c1 — result for “MIC in combination”: 0.125 µg/mL (Cryptococcus neoformans; concentration not given, together with: fluconazole).
For Cc1noc(-c2cccs2)c1C(=O)NCCc1cccc(Cl)c1, the EC50 was 234 ± 53 nM (Plasmodium falciparum; parasite growth, SYBR Green; 3D7 wild type; 72 h).
With COc1cc2nc(N3CCN(C(=O)C4COc5ccccc5O4)CC3)nc(N)c2cc1OC (stereo not drawn) the IC50 was 3160 nM (Plasmodium falciparum; GB4).
CC(C)[C@H]1NC(=O)[C@H](Cc2ccccc2)NC(=O)CNC(=O)[C@@H](Cc2c[nH]c3ccccc23)NC(=O)[C@H](CCCCN)NC(=O)[C@@H](CCCN)NC1=O gave an IC50 of over 16 µg/mL (Naegleria fowleri; trophozoites).
For CN[C@H](CC(C)C)C(=O)N[C@H]1C(=O)N[C@@H](CC(N)=O)C(=O)N[C@H]2C(=O)N[C@H]3C(=O)N[C@H](C(=O)N[C@H](C(=O)O)c4cc(O)cc(O)c4-c4cc3ccc4O)[C@H](O)c3ccc(c(Cl)c3)Oc3cc2cc(c3O[C@@H]2O[C@H](CO)[C@@H](O)[C@H](O)[C@H]2O[C@H]2C[C@](C)(N)[C@H](O)[C@H](C)O2)Oc2ccc(cc2Cl)[C@H]1O, the biofilm inhibition was 94.9% (Staphylococcus aureus; MRSA ATCC 33591; 1/4 × MIC).
C[C@@H]1C[C@@H]([C@H](O)CC2CC(=O)NC(=O)C2)C(=O)[C@@H](C)C1: “inhibition zone diameter” 14 ± 0.26 mm (Candida albicans; ATCC 10231; concentration not given).
With NCc1ccc(-c2nc(-c3ccc(OC4CC4)cc3)no2)cc1 the inhibition was 12 to 33% (Clostridioides difficile; spore germination; ATCC 43255; 45 µM, 1 h).
For C#Cc1ccc(O)c(C=NNC(=O)c2ccc(COC)cc2)c1, the FICI was 2.5 (Cryptococcus neoformans; H99; unit not given, together with: amphotericin B; lower = more synergy).
The EC50 of O=C(CNCC1CCCCC1)Nc1cc(C(F)(F)F)ccc1Cl is reported as 474 ± 100 nM (Plasmodium falciparum; parasite growth, SYBR Green; 3D7 wild type; 72 h).
With O=[N+]([O-])c1ccccc1Oc1ccc(-c2noc(-c3ccc(O)cc3)n2)cc1 the inhibition was 14 to 39% (Clostridioides difficile; spore germination; ATCC 43255; 45 µM, 1 h).
Under “bacterial burden, mean”, C[C@@H](O)[C@H]1C(=O)N2C(C(=O)O)=C(S[C@@H]3CN[C@H](C(=O)N(C)C)C3)[C@H](C)[C@H]12 is recorded as 8.3 log10 CFU/thigh (Klebsiella pneumoniae; NDM-producing, neutropenic BALB/c mouse, thigh infection, thigh; dose not given, 4 h).
The IC90 of CC(C)[C@@H]1NC(=O)[C@@H](CCCCN)NC(=O)[C@H](CCCN)NC(=O)[C@@H](CC(=O)O)NC(=O)[C@H](C)NC(=O)[C@H](Cc2c[nH]c3ccccc23)NC(=O)[C@@H](Cc2c[nH]c3ccccc23)NC1=O is reported as over 16 µg/mL (Acanthamoeba castellanii; trophozoites).
With COCC(=O)O[C@]1(CCN(C)CCCc2nc3ccccc3[nH]2)CCc2cc(F)ccc2[C@@H]1C(C)C the IC50 was 5010 nM (Plasmodium falciparum; HB3).
For COC(=O)N[C@H](C(=O)N1CCC[C@H]1c1ncc(-c2ccc(-c3ccc(-c4cnc([C@@H]5CCCN5C(=O)[C@@H](NC(=O)OC)C(C)C)[nH]4)cc3)cc2)[nH]1)C(C)C, the combination index was 0.8 (Hepatitis C virus; replicon cells; 90% effect level, together with: NS5B inhibitor, ratio 2.5:1).
For Cc1c2c(nn1C)CSCc1cc(n(C)n1)CSc1cc(c3ccccc3c1)OCCCc1c(C(=O)O)n(C)c3c-2c(Cl)ccc13, “log2 fold change” read 3.25 (Staphylococcus aureus; label-free quantitative proteomics, refers to: SAOUHSC_01399 protein; SA113; concentration not given; baseline: untreated control).
With COC(=O)[C@H]1[C@H]2C[C@@H]3c4[nH]c5cc(OC)ccc5c4CCN3C[C@H]2C[C@@H](OC(=O)c2cc(OC)c(OC)c(OC)c2)[C@@H]1OC the IC50 was 316 nM (Plasmodium falciparum; 7G8).
With CNC(=O)c1cc(Cl)cc(C)c1NC(=O)c1cc(Br)nn1-c1ncccc1Cl the mortality was 60% (Spodoptera litura; leaf-dip; third instar larvae; 6.25 ppm, 48 h).
Cc1cc(Nc2ccc(C(F)(F)F)cc2)n2ncnc2n1 gave an EC50 of 101 ± 29 nM (Plasmodium falciparum; parasite growth, SYBR Green; 3D7 wild type; 72 h).
CN[C@H](CC(C)C)C(=O)N[C@H]1C(=O)N[C@@H](CC(N)=O)C(=O)N[C@H]2C(=O)N[C@H]3C(=O)N[C@H](C(=O)N[C@H](C(=O)O)c4cc(O)cc(O)c4-c4cc3ccc4O)[C@H](O)c3ccc(c(Cl)c3)Oc3cc2cc(c3O[C@@H]2O[C@H](CO)[C@@H](O)[C@H](O)[C@H]2O[C@H]2C[C@](C)(N)[C@H](O)[C@H](C)O2)Oc2ccc(cc2Cl)[C@H]1O has an MIC90 of 1 µg/mL (≈ 0.69 µM) (Staphylococcus aureus).
With CC(C)[C@H]1NC(=O)[C@@H]([C@H](C)O)NC(=O)[C@H](CO)NC(=O)[C@@H](CCCNC(=N)N)NC(=O)CNC(=O)[C@H](Cc2ccccc2)NC(=O)[C@H]([C@@H](C)O)NC1=O the IC50 was over 16 µg/mL (Acanthamoeba castellanii; trophozoites).
The EC50 of Cc1cc(Nc2ccc3c(c2)CCC3)n2ncnc2n1 is reported as 2420 ± 690 nM (Plasmodium falciparum; parasite growth, SYBR Green; 3D7 wild type; 72 h).
Cc1ccc2c(c1)CC[C@@](CCN(C)CCCc1nc3ccccc3[nH]1)(OC(=O)C1CC1)[C@H]2C(C)C gave an IC50 of 794 nM (Plasmodium falciparum; W2).
The FICI of C#Cc1ccc(O)c(C=NNC(=O)c2ccc(C3(C(F)(F)F)N=N3)cc2)c1 is reported as 0.62 (Cryptococcus neoformans; H99; unit not given, together with: fluconazole; lower = more synergy).
The MIC50 of Cn1c(=O)ccc2ccc(F)c(CCNC[C@H]3CN(c4cnc5c(n4)NC(=O)CO5)C(=O)O3)c21 is reported as 0.03 µg/mL (≈ 0.064 µM) (Staphylococcus aureus).
C[C@H]1CN(c2n[nH]c3nc(N[C@H]4CC[C@H](NS(=O)(=O)CCC(F)(F)F)CC4)ncc23)CCO1 — result for “EC50 fold change”: 0.6 (Leishmania donovani; promastigotes, LdBOB CRK12 single knockout; baseline: wild type).
The IC50 of CCOC(=O)Nc1ccc(NCc2ccc(F)cc2)nc1N is reported as 10000 nM (Plasmodium falciparum; Dd2).
For Nc1ncnc2c1ncn2[C@@H]1O[C@@H]2COP(=O)(O)O[C@H]3[C@@H](O)[C@H](n4cnc5c(=O)[nH]cnc54)O[C@@H]3COP(=O)(O)O[C@H]2[C@H]1O, the fold enrichment was 6.89 (West Nile virus; RNA sequencing, refers to: glycosaminoglycan metabolism diseases R-HSA-3560782; HFF-1 cells; concentration not given, downregulated pathway; baseline: WNV-infected untreated cells).
C=C(CN(C(=O)c1c(C(F)F)nn(C)c1F)C1CC1)c1ccc(Cl)cc1Cl has a colony diameter of 5 mm (Exserohilum turcicum; 1.56 mg/L).
With C[C@@H](O)[C@@H]1NC(=O)[C@H](Cc2ccccc2)NC(=O)[C@@H](Cc2ccccc2)NC(=O)[C@H]([C@@H](C)O)NC(=O)[C@@H](CCCCN)NC(=O)[C@H](CC(=O)O)NC1=O the IC90 was over 16 µg/mL (Naegleria fowleri; trophozoites).
For O=C(NN=Cc1ccc(O)c(Br)c1)c1cccc(Br)c1, the FIC index was 1 (Cryptococcus neoformans; together with: caspofungin; lower = more synergistic).
Cc1ccc2[nH]c3c(c2c1)CCCC3NCCc1ccc(O)cc1 (stereo not drawn) — result for “MIC fold change”: 4 (Streptococcus pneumoniae; concentration not given, 10% fetal bovine serum; baseline: without serum).
CCCn1c(O)nnc1SCC(=O)Nc1cc(Cl)ccc1Cl has an EC50 of 669 ± 160 nM (Plasmodium falciparum; parasite growth, SYBR Green; 3D7 wild type; 72 h).
For Cc1ccc2[nH]c3c(c2c1)CCCC3NCCc1ccccc1Br (stereo not drawn), “MIC fold change” read 4 (Streptococcus pneumoniae; concentration not given, 10% fetal bovine serum; baseline: without serum).
The FICI of C#Cc1ccc(O)c(C=NNC(=O)c2ccc(Br)cc2Br)c1 is reported as 1.25 (Candida albicans; A39; unit not given, together with: caspofungin; lower = more synergy).
The IC90 of CC(C)[C@@H]1NC(=O)[C@@H](Cc2ccccc2)NC(=O)[C@H](Cc2ccccc2)NC(=O)[C@@H]([C@H](C)O)NC(=O)[C@H]([C@@H](C)O)NC(=O)[C@@H](CCCNC(=N)N)NC1=O is reported as over 16 µg/mL (Naegleria fowleri; trophozoites).
For CNCCC=C1c2ccccc2CCc2ccccc21, the IC50 was 12600 nM (Plasmodium falciparum; HB3).
CC(C)[C@@H]1NC(=O)[C@@H](CCCN)NC(=O)[C@H]([C@@H](C)O)NC(=O)[C@@H](CCCN)NC(=O)[C@H](Cc2ccccc2)NC(=O)[C@@H](C)NC(=O)[C@@H](C(C)C)NC(=O)[C@@H](C)NC(=O)[C@H](Cc2c[nH]c3ccccc23)NC(=O)[C@@H](Cc2c[nH]c3ccccc23)NC1=O gave an IC50 of over 16 µg/mL (Acanthamoeba castellanii; trophozoites).
Cc1cc(Cl)cc(S(C)(=O)=O)c1NC(=O)c1cc(Br)nn1-c1ncccc1Cl has a mortality of 46.7% (Spodoptera litura; leaf-dip; third instar larvae; 6.25 ppm, 48 h).
O=S(=O)(c1cccc2c(Cl)cccc12)N1CCCNCC1 gave an IC50 of 12600 nM (Plasmodium falciparum; 3D7).
CN(CCOc1ccc(CC2SC(=O)NC2=O)cc1)c1ccccn1 (stereo not drawn) gave an Emax of 18.6% (Human coronavirus OC43; virus-induced cell killing; MRC-5).
CC[C@H](C)[C@H](NC(=O)[C@H](C)NC(=O)[C@H](CCCCN)NC(=O)[C@H](CC(C)C)NC(=O)[C@H](C)NC(=O)[C@@H](NC(=O)[C@H](Cc1c[nH]cn1)NC(=O)[C@H](CC(C)C)NC(=O)[C@@H](NC(=O)[C@@H](NC(=O)[C@H](CCCCN)NC(=O)[C@H](C)NC(=O)[C@H](C)NC(=O)[C@H](CO)NC(=O)[C@H](CCCCN)NC(=O)[C@H](Cc1ccccc1)NC(=O)[C@@H](NC(=O)[C@H](CCCCN)NC(=O)[C@H](CC(C)C)NC(=O)[C@H](Cc1ccccc1)NC(=O)[C@H](CO)NC(=O)[C@H](CCCCN)NC(=O)[C@H](Cc1c[nH]c2ccccc12)NC(=O)[C@H](CCCCN)NC(C)=O)[C@@H](C)O)[C@@H](C)O)C(C)C)[C@@H](C)O)C(=O)N[C@@H](CO)C(=O)N[C@@H](CO)C(N)=O: “MIC geometric mean” 15.5 µg/mL (≈ 5.28 µM) (Streptococcus pyogenes; erythromycin-sensitive).
The FICI of C#Cc1cccc(C=NNC(=O)c2ccc(Br)cc2)c1O is reported as 1.67 (Cryptococcus neoformans; H99; unit not given, together with: amphotericin B; lower = more synergy).
The mortality of CN(C)c1nc(NCc2cccc(C(F)(F)F)c2)c(/N=N/c2ccc(Cl)cc2)c(N(C)C)n1 is reported as 40 ± 10% (Ostrinia furnacalis; leaf dipping; 200 mg/L, 96 h).
For CS(=O)(=O)CCCn1c(Cn2c(=O)n(CC(F)(F)F)c3ccncc32)cc2cc(Cl)ccc21, “LS mean viral load change” read -4.15 log10 copies/mL (respiratory syncytial virus; RT-qPCR; hospitalized infants 1-24 months, nasal swab; oral, 8 mg/kg daily, day 14, cohort 6-24 months; baseline: baseline).
CCOC(=O)c1cn(CC)c2cc(O[C@H]3CCN(C(=O)OC(C)(C)C)C3)ccc2c1=O gave an EC50 of 400 ± 76 nM (Plasmodium falciparum; parasite growth, SYBR Green; 3D7 wild type; 72 h).
COc1cc(N[C@H](C(=O)c2c[nH]c3ccc(OC(F)(F)F)cc23)c2ccc(Cl)cc2OC)cc(S(C)(=O)=O)c1 gave an inhibition of 100% (dengue virus 2; viral infection, luciferase reporter virus; 0.3 nM, 48 h).
With COC(=O)C1=CNC=C(C(=O)OC)C1c1ccc(Cl)c([N+](=O)[O-])c1 the EC50 was 386 ± 89 nM (Plasmodium falciparum; parasite growth, SYBR Green; 3D7 wild type; 72 h).
CC(C)[C@H]1NC(=O)[C@H](Cc2ccccc2)NC(=O)CNC(=O)[C@@H](Cc2ccccc2)NC(=O)[C@H](CCCCN)NC(=O)[C@@H](CCCNC(=N)N)NC1=O gave an IC90 of over 16 µg/mL (Acanthamoeba castellanii; trophozoites).
For COCC(C)n1c(SCC(=O)Nc2cc(C(F)(F)F)ccc2Cl)nc2ccccc2c1=O (stereo not drawn), the EC50 was 421 ± 60 nM (Plasmodium falciparum; parasite growth; Dd2).
CC(C)[C@@H]1NC(=O)[C@@H](CC(N)=O)NC(=O)[C@H](Cc2ccccc2)NC(=O)[C@@H](CCCN)NC(=O)[C@H](CCCN)NC(=O)[C@H]([C@@H](C)O)NC(=O)[C@@H](C(C)C)NC(=O)[C@H](C(C)C)NC(=O)[C@@H]([C@H](C)O)NC(=O)[C@@H](C(C)C)NC1=O gave an IC90 of over 16 µg/mL (Naegleria fowleri; trophozoites).

Excerpt of the above:
For C#Cc1ccc(O)c(C=NNC(=O)c2ccc(COC)cc2)c1, the FICI was 2.5 (Cryptococcus neoformans; H99; unit not given, together with: amphotericin B; lower = more synergy).
The FICI of C#Cc1cccc(C=NNC(=O)c2ccc(Br)cc2)c1O is reported as 1.67 (Cryptococcus neoformans; H99; unit not given, together with: amphotericin B; lower = more synergy).
CC(C)[C@@H]1NC(=O)[C@@H](CCCN)NC(=O)[C@H]([C@@H](C)O)NC(=O)[C@@H](CCCN)NC(=O)[C@H](Cc2ccccc2)NC(=O)[C@@H](C)NC(=O)[C@@H](C(C)C)NC(=O)[C@@H](C)NC(=O)[C@H](Cc2c[nH]c3ccccc23)NC(=O)[C@@H](Cc2c[nH]c3ccccc23)NC1=O gave an IC50 of over 16 µg/mL (Acanthamoeba castellanii; trophozoites).
With COC(=O)C1=CNC=C(C(=O)OC)C1c1ccc(Cl)c([N+](=O)[O-])c1 the EC50 was 386 ± 89 nM (Plasmodium falciparum; parasite growth, SYBR Green; 3D7 wild type; 72 h).
For COCC(C)n1c(SCC(=O)Nc2cc(C(F)(F)F)ccc2Cl)nc2ccccc2c1=O (stereo not drawn), the EC50 was 421 ± 60 nM (Plasmodium falciparum; parasite growth; Dd2).
